# Published values gathered from unrelated publications.
# Numbered parts are unrelated; each lists some results of a single study. Substitutions count along the parent as printed.

# Sample 1 — method: protein binding microarray; molecule type: double-stranded DNA, one strand shown; medium: in vitro; tested at: not given; baseline: not given; reading: higher = stronger binding
# Target: Histone acetyltransferase KAT6A, winged helix 1, GST fusion (KAT6A, Homo sapiens, UniProt Q92794, residues 1-85)
# Setting: 8-mer, flanks averaged, mean of 2 arrays, mostly near background
# Residues (chain): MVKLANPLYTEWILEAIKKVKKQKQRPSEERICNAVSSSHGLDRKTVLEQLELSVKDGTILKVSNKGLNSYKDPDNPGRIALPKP
Sequence,E-score
AGCAAGGG,-0.166
GTTTTCTA,-0.0663
CCGGTACG,0.301
CTTGCCTA,-0.243
GCGACATA,0.106
AAGTAAGG,-0.328

# Sample 2 — method: RNA Bind-n-Seq; molecule type: RNA; medium: in vitro; tested at: 200 nM; setting: whole 134-nt RNA, ends assumed; added: 150 mM LiCl; baseline: input library; reading: higher = stronger binding; each molecule: 7-deaza-guanosine replaces G
# Target: Fragile X messenger ribonucleoprotein 1, C-terminal low-complexity region (Fmr1, Mus musculus, UniProt P35922)
Sequence,log2 enrichment
GGGAGUUCUACAGUCCGACGAUCCCUGUGCUACACAUCGUAUGUACCGAAUCGGAAAAAAAGGGAAAAAAAGGGGAAAAAAAGGAAAGUAUUAUGUUACGCCGUUCGGAUCUGUGGAAUUCUCGGGUGUCAAGG,-0.164
GGGAGUUCUACAGUCCGACGAUCUAACUUUAGAGGAGGAUCUGAUGGAUAUGGCAGUGGCCGUGGAUUUGGGGAUGGCUAUAAUGGGUAUGGAGGAGGACCUGGAGGUGGCAAUGGAAUUCUCGGGUGUCAAGG,-0.485
GGGAGUUCUACAGUCCGACGAUCACCAUGCAGGUGGGCAUCUUUGGGAAGUGGGGCAAGGGGAAAAUAGGGAGGGGGGUAACACUUUGGGAACAGGUGGUCCCAGGUCGUUUCUGGAAUUCUCGGGUGUCAAGG,1.1
GGGAGUUCUACAGUCCGACGAUCGCAGGAAGUAAAAACAAAUGGAAAUGCUUCGGAUAGUGGCAGGGGUGGGGGUUGCUAAGGAAAGGGUGGGAUGGGAGUAGGUAAAGAGUUUGGAAUUCUCGGGUGUCAAGG,1.57

# Mixed results
# ABI1: ABI1, truncated, D143A, DHFR fusion (Arabidopsis thaliana)
# P1: PYL1, truncated, DHFR fusion (Arabidopsis thaliana); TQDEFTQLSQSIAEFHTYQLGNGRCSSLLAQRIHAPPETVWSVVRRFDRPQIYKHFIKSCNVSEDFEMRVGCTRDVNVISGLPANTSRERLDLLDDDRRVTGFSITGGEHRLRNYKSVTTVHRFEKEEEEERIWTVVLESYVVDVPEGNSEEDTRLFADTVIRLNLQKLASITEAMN; partner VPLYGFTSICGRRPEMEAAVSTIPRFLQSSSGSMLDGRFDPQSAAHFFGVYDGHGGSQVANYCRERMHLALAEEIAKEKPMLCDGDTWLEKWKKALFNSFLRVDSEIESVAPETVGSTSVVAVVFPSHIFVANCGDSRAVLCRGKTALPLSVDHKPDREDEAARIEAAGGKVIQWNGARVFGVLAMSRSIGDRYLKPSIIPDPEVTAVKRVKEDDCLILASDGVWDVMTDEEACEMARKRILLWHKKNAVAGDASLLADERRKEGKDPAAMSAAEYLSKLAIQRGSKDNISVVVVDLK
Substance,target,assay,system,conditions,how to read,measurement,value
P1 Q2I,ABI1,"DHFR PCA, deep sequencing",yeast,"methotrexate growth selection, single substitutions, added: (+)-ABA 0.11 µM","baseline: wild-type fitted maximum, higher = stronger binding",relative binding score,72.1%
"PhoQ, residues 284 288 289 292 302 303 HSSMNL","PhoP, residues 12 14 15 18 19 NQGLL (Escherichia coli, UniProt P23836)","Sort-seq, measured: YFP reporter",E. coli,"PhoQ-PhoP variant library, added: 10 µM Mg2+","baseline: high Mg2+ state, higher = stronger signaling",fold induction,3.19
P1 E38F,ABI1,"DHFR PCA, deep sequencing",yeast,"methotrexate growth selection, single substitutions, added: (+)-ABA 0.11 µM","baseline: wild-type fitted maximum, higher = stronger binding",relative binding score,3.68%

# For quick reference, copied from above (sample 1):
Sequence,E-score
AGCAAGGG,-0.166
GTTTTCTA,-0.0663
